Experimental data pooled from the literature.
Route: intravenous

| Compound | host | matrix | dose | notes | C0 |
| --- | --- | --- | --- | --- | --- |
| C/C(N)=N/C(=N\S(=O)(=O)c1ccc(C(F)(F)F)cc1)N1C[C@H](c2ccccc2)C(c2ccc(Cl)cc2)=N1 | male C57BL/6 mouse | plasma | 10 mg/kg | – | 5620 ng/mL |
| O=C(Nc1ccc(C(F)F)cc1)[C@H](CC1CCCCC1)Nc1nn2c(=O)ccnc2s1 | female nude mouse | plasma | 1 mg/kg | – | 1060 ng/mL |
| CC[C@H](C)[C@H](NC(=O)[C@H](Cc1ccccc1)NC(=O)[C@H](CCC(=O)O)NC(=O)[C@H](CCCCN)NC(=O)[C@H](C)NC(=O)[C@H](C)NC(=O)[C@H](CCC(N)=O)NC(=O)CNC(=O)[C@H](CCC(=O)O)NC(=O)[C@H](CC(C)C)NC(=O)[C@H](Cc1ccc(O)cc1)NC(=O)[C@H](CO)NC(=O)[C@H](CO)NC(=O)[C@@H](NC(=O)[C@H](CC(=O)O)NC(=O)[C@H](CO)NC(=O)[C@@H](NC(=O)[C@H](Cc1ccccc1)NC(=O)[C@@H](NC(=O)CNC(=O)[C@H](CCC(=O)O)NC(=O)[C@H](C)NC(=O)[C@@H](N)Cc1c[nH]cn1)[C@@H](C)O)[C@@H](C)O)C(C)C)C(=O)N[C@@H](C)C(=O)N[C@@H](Cc1c[nH]c2ccccc12)C(=O)N[C@@H](CC(C)C)C(=O)N[C@H](C(=O)N[C@@H](CCCNC(=N)N)C(=O)NCC(=O)N[C@@H](CCCNC(=N)N)C(=O)NCC(=O)O)C(C)C | male CD-1 mouse | plasma | 1 mg/kg | single dose | 1930 ng/mL |
| Cn1c2cc([S+](C)[O-])sc2c2cnn(Cc3cccc(N)c3)c(=O)c21 (stereo not shown) | male BALB/c mouse | plasma | 1 mg/kg | single dose | 877 ng/mL |
| N#CCCC1CCN(C(=S)c2ccc(-c3cc(Cl)ccc3Cl)o2)CC1 | male BALB/c mouse | plasma | 5 mg/kg | – | 4640 ng/mL |
| CCn1cc(-c2cc(Cn3ccnc3)cc3c2CCN([C@H](c2cc(OC)ccn2)C2CC2)C3=O)c(C(F)(F)F)n1 | male CD-1 mouse | plasma | 3 mg/kg | – | 4430 ng/mL |
| O=C1C2CC3CC1CC(C(=O)N1CCN(c4ccc([N+](=O)[O-])c5ncccc45)CC1)(C3)C2 | male CD-1 mouse | plasma | 1 mg/kg | – | 1310 ng/mL |
| O=C(O)c1ccc(/C=C2\SC(=S)N(Cc3cccc(C(F)(F)F)c3)C2=O)cc1 | C57BL/6 mouse | blood | 5 mg/kg | – | 12400 ng/mL |
| COc1cnc2cccc(N3CCc4c(cc(Cn5ccnc5)cc4-c4cn(C)nc4C(F)(F)F)C3=O)c2c1 | male CD-1 mouse | plasma | 3 mg/kg | – | 3390 ng/mL |
| O=C1CCC(N2Cc3cc(C(=O)O)c(F)cc3C2=O)C(=O)N1 (stereo not shown) | male CD-1 mouse | plasma | 1 mg/kg | – | 4920 ng/mL |
